Measurements collected from several papers.
A part holds a random share of what one study measured. Substitutions count along the parent as printed.

Sample 1 — technique: DHFR PCA, deep sequencing; sample: yeast; added: (+)-ABA 0.032 µM; baseline: wild-type fitted maximum; reading: higher = stronger binding
Target: ABI1, truncated, D143A, DHFR fusion (Arabidopsis thaliana)
Notes: methotrexate growth selection, single substitutions
Parent: PYL1, truncated, DHFR fusion (Arabidopsis thaliana); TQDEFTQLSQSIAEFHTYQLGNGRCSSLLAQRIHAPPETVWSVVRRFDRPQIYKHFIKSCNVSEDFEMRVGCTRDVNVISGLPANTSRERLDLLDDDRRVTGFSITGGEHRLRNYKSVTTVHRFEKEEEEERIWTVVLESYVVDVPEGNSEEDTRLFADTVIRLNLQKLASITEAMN
| Substitution | relative binding score [%] |
| --- | --- |
| T73C | 12.6 |
| I162N | 4.38 |
| D3I | 3.45 |
| R49N | 2.09 |
| I33S | 3.32 |
| Y18P | 4.12 |
| K58W | -0.403 |
| T101D | -1.85 |
| H110E | 39 |
| L156S | 5.17 |
| L112R | -3.85 |
| E67I | 28.5 |
| P37N | 4.13 |
| E151V | 38.1 |
| R163F | -23.5 |
| F15E | 3.27 |

Sample 2 — technique: protein-binding microarray; form: double-stranded DNA, one strand shown; sample: in vitro; concentration: not given; reading: higher = stronger binding
Target: Myc proto-oncogene protein, bHLH-zipper, MAX partner unstated (MYC, Homo sapiens, UniProt P01106, residues 368-449)
Chain of UniProt P01106 (368-449, looked up): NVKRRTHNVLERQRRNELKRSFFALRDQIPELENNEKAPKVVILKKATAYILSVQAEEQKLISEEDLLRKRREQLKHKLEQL
Notes: k-mer, scored over probes, only values ≥0.25
| Oligonucleotide | E-score |
| --- | --- |
| CACACCAC | 0.348 |
| AGCATGAG | 0.366 |
| ACGTTGCA | 0.292 |
| CGTGGCGC | 0.387 |
| GAACGCAC | 0.291 |
| AACGTGGG | 0.383 |
| GAACACGA | 0.355 |
| CGCACGCG | 0.456 |
| CGTGCCAA | 0.323 |
| CATGCCCA | 0.315 |
| GTGCTCAA | 0.266 |
| CACGCTCG | 0.374 |
| ACAACCAC | 0.304 |
| GACATGCC | 0.358 |
| CCATGCGA | 0.383 |
| CGCACGCA | 0.395 |
| ACGTGAGA | 0.327 |
| CGTGCCAC | 0.34 |

Sample 3 — target: CCNF, cyclin fold, Cln2 fusion (human); technique: yeast growth competition, sequencing; sample: yeast; notes: strong parent motif; baseline: not given; reading: higher = stronger binding
Parent: INSM1 docking peptide (human); PKAIRKLHFEDEV
| Substitution | normalised enrichment score |
| --- | --- |
| PKAIRKSHFEDEV [L7S] | 0.502 |
| PKAIRKLHFRDEV [E10R] | 6.85 |
| PKAIRKCHFEDEV [L7C] | 0.371 |
| PKAIRCLHFEDEV [K6C] | 6.6 |
| PKAIRKLNFEDEV [H8N] | 7.06 |
| PKAIRKLHFEDLV [E12L] | 8.22 |
| PKVIRKLHFEDEV [A3V] | 8.09 |
| PKAIRKLLFEDEV [H8L] | 8.21 |
| PKAILKLHFEDEV [R5L] | 0.504 |
| PKALRKLHFEDEV [I4L] | 7.38 |
| PKAIRALHFEDEV [K6A] | 6.32 |
| PKAIRKLHYEDEV [F9Y] | 4.66 |
| PKAIRKLHCEDEV [F9C] | 0.144 |
| PKAIRKLHFEDAV [E12A] | 7.92 |
| PKAIRKLHFELEV [D11L] | 7.9 |
| PKAIRKLHFEDKV [E12K] | 7.68 |
| PKAIRKLHFEKEV [D11K] | 7.65 |
| PKAIRKMHFEDEV [L7M] | 0.0275 |
| PKAQRKLHFEDEV [I4Q] | 8.18 |
| PKAIRKLHFEEEV [D11E] | 7.89 |
| PKQIRKLHFEDEV [A3Q] | 4.75 |
| PKAIRKLHFVDEV [E10V] | 7.51 |
| PKDIRKLHFEDEV [A3D] | 0.172 |
| PKAIRFLHFEDEV [K6F] | 4.03 |
| PKAPRKLHFEDEV [I4P] | 7.21 |

Sample 4 — technique: universal PBM; form: double-stranded DNA, one strand shown; sample: in vitro; concentration: not given; reading: higher = stronger binding
Target: Sal-like protein 4, full length isoform B (SALL4, Homo sapiens, UniProt Q9UJQ4-2, residues 1-616)
Notes: 8-mer, flanks averaged, mean of replicates
Residues (chain): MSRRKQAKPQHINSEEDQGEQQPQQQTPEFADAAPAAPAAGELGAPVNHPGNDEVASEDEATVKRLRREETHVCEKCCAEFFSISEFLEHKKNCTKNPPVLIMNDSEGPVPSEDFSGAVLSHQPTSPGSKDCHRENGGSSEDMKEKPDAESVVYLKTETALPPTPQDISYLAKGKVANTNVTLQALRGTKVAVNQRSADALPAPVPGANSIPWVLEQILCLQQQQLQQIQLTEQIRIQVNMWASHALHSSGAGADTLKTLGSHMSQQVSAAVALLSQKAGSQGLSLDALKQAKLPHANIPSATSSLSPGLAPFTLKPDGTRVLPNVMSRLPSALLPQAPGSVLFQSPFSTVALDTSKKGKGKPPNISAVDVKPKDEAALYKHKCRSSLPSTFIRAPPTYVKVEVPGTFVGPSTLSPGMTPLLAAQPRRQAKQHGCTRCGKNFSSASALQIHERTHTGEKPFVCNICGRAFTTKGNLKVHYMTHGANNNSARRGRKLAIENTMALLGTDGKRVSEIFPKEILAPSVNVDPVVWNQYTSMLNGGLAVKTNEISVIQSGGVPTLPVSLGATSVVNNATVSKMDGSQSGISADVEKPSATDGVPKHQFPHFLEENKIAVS
| Oligonucleotide | E-score |
| --- | --- |
| CACTGCGA | -0.07 |
| CGCCTAAA | -0.00768 |
| ATGTAGTG | 0.135 |
| AATGAACA | 0.155 |
| ACTTTTAT | 0.285 |
| CGTACTCC | -0.166 |
| GGTTTGCA | -0.0978 |
| CTTACCGC | -0.257 |
| AATTAACT | 0.222 |
| AGCAATCG | -0.0179 |
| GAGCCTCA | -0.223 |
| AATTGCGA | 0.109 |
| ACCGGGGG | -0.326 |
| AAACACTT | 0.0492 |
| AACGATGG | -0.068 |
| AACCATGA | 0.111 |
| CGAAGCAG | -0.178 |
| CGGTTCGA | -0.22 |
| CTTAATAA | 0.379 |
| GAATCGGC | -0.143 |
| ACTTAATA | 0.339 |
| ACTTACTA | 0.138 |
| CCCTAACG | 0.049 |
| TGTGCCAA | 0.0801 |
| TCACCTGA | -0.0364 |

Sample 5 — technique: RNA Bind-n-Seq; form: RNA; sample: in vitro; concentration: 365 nM; baseline: no-protein control; reading: higher = stronger binding
Target: RNA binding protein fox-1 homolog 2, RRM domain, GST-SBP tag (RBFOX2, Homo sapiens, UniProt O43251-10, residues 100-194)
Notes: natural RNA segment, single round, ends assumed
Shared flanks, not repeated: GGGAGUUCUACAGUCCGACGAUC … UGGAAUUCUCGGGUGCCAA
Construct (chain): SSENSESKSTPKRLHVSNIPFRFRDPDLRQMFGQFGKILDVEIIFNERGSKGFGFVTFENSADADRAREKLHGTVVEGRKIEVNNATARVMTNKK
| Oligonucleotide | RBNS enrichment (R) |
| --- | --- |
| CUAGGGAAAAACAUAUCUGUUCCAAGAAAAUAAACUAGUUCUCAGAGCCUUGAUUUUCCUGGUCAGGGUGAAGUUCCCUGUGUGUCUGUAAAAUAUGAACAAGGAUUCAU | 0.349 |
| GCAGCAGGGAGCAAAAUCUCCUUUAACAACCAAGCAGUUCCUCAUUCACAUCAACAGAGCGAGGCUGUGAUAACUUAGGAGGCAGCAAUCCUAAUAGUCCUUCAGUGCAU | 0.522 |
| GAGUCGUAUGACAGCCACAAGGCUGGAAAUCACAAUGCACUUGCUGCCGUUCUGACCUGGGACUGGGCCACUUCUUCAGUUCCUAAUGCCAGGCCUGGCCUCCUGAUGCC | 0.309 |
| ACUGUAAGCUUUUAAGAAAAACAAAGUUUUAAACGAAAUACUGCUCUGUCCAGAGGCUUUAAAACUGGUGCAAUUACAGCAAAAAGGGAUUCUGUAGCUUUAACUUGUAA | 0.745 |
| GGCAUGAGCGCAUGGAUUCUGUCACCAAGCGUAUAAAAGGACCCUGGCAUUGGGAAACCUAUGACGGACUGUUUUUGCUGUAGAAGUAGGGAUUUUACAGAAGUCUCCUU | 3.54 |
| ACCUUGCCUGGGACCAGCCUGGGAACCAGACACUGGGGCCCUUUCCUCACUCUUCCACUGACCCACUGUGUGACCUGAAGAGAGCCCUGCCCUCUCUGAGCCUCAGUGUU | 0.561 |
| UUAUAAUAAAGAUAUAAGUGGAUUUUAAGGUUCCAUUUUUUUAAGGUUACCCUUGUUUUUCAAAGGUAUUUUUUAAACAGAUCUUUAAUAGAAUAUUUAAGCUGUGACUG | 0.434 |
| CAUAUUUUAAUUGCAUAUAACUGUAUAAUAGUCCGUGUUGUUUUCUUGCAUUGACAUGUUUCCUUUUGAAAUGAGGUAAUCAAUUAGGUGGGGAAAAAAAUGUUCUCGAC | 0.513 |
| GGAGGAUCCCUCCUCCCCAGAUAAAGACAGGAGAGAACUCAUGUUUUAAUAUUUGAUGCUCAUAUGUGUCUUUAGUGUGAGCUCUUGUGUUUUGAAAUGAUUGCUUCAGU | 0.457 |
| CCCAGACACACUCUCUGCCUGGUGGUCAGAUGCAGGUUGGAAGGGGCCUUGCUGAGUGGCGCAAGGCCGAGCGUUCCCAGCAGGGGGAGAAACCCUUCACACCCCAGGCC | 0.377 |
| UUUUGUUGUCCUUCUUAAUGUUCUCAGUCAAAUAAAUGAGUGAGCUGGUUUCGGCUGCUCUUGGAAUGGUGAGCCUCUUCUUUAUGGGUAGACUGGGCCUUUGGAACUUG | 0.432 |
| UGAAAGUGGCUUUUGACAGCUUCUCUCUUUUUGGUGUAAUGUUUUACAUGUCCUGUGUCCUGGGGACUAAUGUGUUAAUUGCCUUAAAUAAAUUAAUAGACUCCAAGUCC | 0.317 |
